Measurements gathered from unrelated publications.
Each numbered part is a random draw from the data of one study; scales do not carry over between parts.
Sequence of UniProt O15552 (whole entry, looked up): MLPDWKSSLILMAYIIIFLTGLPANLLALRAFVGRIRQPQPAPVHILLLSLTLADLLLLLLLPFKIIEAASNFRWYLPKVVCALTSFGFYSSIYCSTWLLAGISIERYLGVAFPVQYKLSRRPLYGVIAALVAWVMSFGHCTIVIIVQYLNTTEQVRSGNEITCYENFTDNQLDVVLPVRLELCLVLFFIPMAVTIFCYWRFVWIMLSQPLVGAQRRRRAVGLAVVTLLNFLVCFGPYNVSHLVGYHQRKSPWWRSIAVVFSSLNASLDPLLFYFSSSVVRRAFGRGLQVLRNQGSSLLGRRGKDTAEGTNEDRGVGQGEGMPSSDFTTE
Sequence of UniProt P30874 (whole entry, looked up): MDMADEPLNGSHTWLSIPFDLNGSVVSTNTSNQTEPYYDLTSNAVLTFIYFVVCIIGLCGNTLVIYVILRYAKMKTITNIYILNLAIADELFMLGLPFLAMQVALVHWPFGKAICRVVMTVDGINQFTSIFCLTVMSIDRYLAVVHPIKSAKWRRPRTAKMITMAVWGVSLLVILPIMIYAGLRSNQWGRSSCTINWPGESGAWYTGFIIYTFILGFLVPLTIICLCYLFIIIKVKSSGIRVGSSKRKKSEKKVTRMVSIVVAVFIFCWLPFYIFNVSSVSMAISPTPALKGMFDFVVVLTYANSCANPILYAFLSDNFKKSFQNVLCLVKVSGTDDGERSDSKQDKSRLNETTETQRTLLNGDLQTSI
Sequence of UniProt P21554 (whole entry, looked up): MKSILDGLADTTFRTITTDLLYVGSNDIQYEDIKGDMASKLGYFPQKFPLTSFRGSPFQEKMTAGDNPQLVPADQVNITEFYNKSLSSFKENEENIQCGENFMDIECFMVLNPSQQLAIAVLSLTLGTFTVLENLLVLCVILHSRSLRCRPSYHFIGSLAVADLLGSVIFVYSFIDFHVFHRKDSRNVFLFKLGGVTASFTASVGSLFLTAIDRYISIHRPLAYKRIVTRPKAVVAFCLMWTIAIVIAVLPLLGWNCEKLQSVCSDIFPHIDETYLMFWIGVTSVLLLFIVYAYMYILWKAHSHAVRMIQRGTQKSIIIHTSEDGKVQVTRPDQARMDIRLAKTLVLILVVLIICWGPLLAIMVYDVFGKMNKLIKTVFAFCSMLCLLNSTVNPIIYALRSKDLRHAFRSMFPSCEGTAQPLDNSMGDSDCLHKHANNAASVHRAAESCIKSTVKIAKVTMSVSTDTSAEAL
Sequence of UniProt O15075 (whole entry, looked up): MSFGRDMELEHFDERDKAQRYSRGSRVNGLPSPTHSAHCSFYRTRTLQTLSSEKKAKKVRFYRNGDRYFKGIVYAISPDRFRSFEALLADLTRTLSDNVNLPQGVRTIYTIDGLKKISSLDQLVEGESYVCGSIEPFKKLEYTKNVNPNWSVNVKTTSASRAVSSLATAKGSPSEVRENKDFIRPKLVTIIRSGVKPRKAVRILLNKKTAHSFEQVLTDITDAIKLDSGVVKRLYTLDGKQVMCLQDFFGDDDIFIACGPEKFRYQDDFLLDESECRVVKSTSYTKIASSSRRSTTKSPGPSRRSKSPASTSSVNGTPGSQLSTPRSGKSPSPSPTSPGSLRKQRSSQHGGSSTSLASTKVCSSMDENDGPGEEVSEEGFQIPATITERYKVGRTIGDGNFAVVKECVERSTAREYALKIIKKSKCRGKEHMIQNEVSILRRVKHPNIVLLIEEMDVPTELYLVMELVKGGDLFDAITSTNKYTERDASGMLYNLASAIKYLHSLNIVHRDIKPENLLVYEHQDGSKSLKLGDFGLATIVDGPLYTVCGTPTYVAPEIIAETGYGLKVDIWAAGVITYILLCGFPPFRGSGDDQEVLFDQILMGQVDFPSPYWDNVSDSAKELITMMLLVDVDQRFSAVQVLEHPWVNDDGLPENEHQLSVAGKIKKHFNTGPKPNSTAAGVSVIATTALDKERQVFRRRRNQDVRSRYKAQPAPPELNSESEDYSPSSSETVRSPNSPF
Sequence of UniProt Q6W5P4 (whole entry, looked up): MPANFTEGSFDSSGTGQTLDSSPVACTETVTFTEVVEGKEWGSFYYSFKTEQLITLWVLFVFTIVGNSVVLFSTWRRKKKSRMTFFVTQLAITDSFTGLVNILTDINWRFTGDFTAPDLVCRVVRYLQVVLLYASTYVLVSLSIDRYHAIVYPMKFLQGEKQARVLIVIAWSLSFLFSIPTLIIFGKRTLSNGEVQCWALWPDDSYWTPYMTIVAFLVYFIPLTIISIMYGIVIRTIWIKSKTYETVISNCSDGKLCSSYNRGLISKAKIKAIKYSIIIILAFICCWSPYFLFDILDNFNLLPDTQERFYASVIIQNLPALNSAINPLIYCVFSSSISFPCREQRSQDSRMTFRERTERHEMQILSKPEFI
Sequence of UniProt O43193 (whole entry, looked up): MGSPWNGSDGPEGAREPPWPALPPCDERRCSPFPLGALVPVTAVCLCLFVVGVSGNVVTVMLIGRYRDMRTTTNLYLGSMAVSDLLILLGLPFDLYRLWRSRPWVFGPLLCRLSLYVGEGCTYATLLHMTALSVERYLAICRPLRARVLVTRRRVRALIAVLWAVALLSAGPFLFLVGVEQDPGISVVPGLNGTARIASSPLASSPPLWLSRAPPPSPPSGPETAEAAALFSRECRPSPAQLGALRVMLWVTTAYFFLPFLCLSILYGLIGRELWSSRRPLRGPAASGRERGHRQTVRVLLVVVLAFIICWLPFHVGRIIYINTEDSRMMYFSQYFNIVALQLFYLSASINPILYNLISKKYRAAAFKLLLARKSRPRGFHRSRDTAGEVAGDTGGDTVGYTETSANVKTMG
Sequence of UniProt Q02643 (whole entry, looked up): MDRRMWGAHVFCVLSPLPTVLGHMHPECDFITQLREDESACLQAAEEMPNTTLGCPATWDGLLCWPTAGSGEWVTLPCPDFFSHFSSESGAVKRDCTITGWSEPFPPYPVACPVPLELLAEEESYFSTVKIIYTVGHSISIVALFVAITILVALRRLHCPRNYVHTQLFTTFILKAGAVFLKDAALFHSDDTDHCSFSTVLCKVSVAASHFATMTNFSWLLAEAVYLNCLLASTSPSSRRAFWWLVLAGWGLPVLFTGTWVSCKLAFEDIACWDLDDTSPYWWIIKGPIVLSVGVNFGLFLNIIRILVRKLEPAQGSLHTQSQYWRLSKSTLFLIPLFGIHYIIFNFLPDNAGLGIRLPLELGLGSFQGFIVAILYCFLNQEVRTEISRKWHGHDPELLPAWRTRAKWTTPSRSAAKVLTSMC
Sequence of UniProt Q96P68 (whole entry, looked up): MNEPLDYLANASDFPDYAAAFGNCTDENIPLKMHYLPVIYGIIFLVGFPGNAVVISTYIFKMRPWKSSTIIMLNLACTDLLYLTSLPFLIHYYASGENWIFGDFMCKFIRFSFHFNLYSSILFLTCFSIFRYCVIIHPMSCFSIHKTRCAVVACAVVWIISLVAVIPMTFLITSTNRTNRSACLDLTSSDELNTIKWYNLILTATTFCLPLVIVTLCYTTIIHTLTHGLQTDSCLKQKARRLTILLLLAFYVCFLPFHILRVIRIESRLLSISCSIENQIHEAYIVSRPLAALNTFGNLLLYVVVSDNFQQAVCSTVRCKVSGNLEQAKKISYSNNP
Sequence of UniProt Q9NSD7 (whole entry, looked up): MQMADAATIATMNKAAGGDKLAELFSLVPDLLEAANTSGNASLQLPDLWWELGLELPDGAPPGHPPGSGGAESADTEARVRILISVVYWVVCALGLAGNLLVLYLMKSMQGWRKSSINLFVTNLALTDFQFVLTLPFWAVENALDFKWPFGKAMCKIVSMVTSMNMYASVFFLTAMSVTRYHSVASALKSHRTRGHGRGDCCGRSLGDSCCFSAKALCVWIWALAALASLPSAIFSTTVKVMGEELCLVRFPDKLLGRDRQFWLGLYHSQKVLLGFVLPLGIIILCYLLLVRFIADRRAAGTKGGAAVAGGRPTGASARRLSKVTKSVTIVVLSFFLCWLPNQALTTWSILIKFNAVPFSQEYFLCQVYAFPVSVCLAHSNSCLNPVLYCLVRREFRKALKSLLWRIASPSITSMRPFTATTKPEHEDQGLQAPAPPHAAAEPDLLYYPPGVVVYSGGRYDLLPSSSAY

Series 1
Compound: CNCc1ccccc1-c1csc([C@H](C)Nc2nc(C)nc3cc(OC)c(OC)cc23)c1
Read-out: cell-free assay
Method: competition with immobilised ligand
Concentration: 1 µM
target	remaining binding
Serine/threonine-protein kinase MRCK alpha (CDC42BPA, Homo sapiens, UniProt Q5VT25)	92%
SRSF protein kinase 2 (SRPK2, Homo sapiens, UniProt P78362)	52%
Serine/threonine-protein kinase WNK4 (WNK4, Homo sapiens, UniProt Q96J92)	90%
Dual specificity protein kinase CLK4 (CLK4, Homo sapiens, UniProt Q9HAZ1)	100%
Hepatocyte growth factor receptor (MET, Homo sapiens, UniProt P08581, M1250T)	96%
Protein kinase C iota type (PRKCI, Homo sapiens, UniProt P41743)	87%
Serine/threonine-protein kinase Nek5 (NEK5, Homo sapiens, UniProt Q6P3R8)	100%
TGF-beta receptor type-1 (TGFBR1, Homo sapiens, UniProt P36897)	80%
Cyclin-dependent kinase 3 (CDK3, Homo sapiens, UniProt Q00526)	100%
Cyclin-dependent kinase-like 5 (CDKL5, Homo sapiens, UniProt O76039)	87%
Peripheral plasma membrane protein CASK (CASK, Homo sapiens, UniProt O14936)	71%
Atypical kinase COQ8B, mitochondrial (COQ8B, Homo sapiens, UniProt Q96D53)	93%
RAC-beta serine/threonine-protein kinase (AKT2, Homo sapiens, UniProt P31751)	90%

Series 2
SMILES: C=CCc1ccc(O)c(-c2cc(CC=C)ccc2O)c1
Read-out: chloride current
Method: whole-cell voltage clamp
ANO1 del476-501/F803A: Anoctamin-1 (ANO1, Homo sapiens, UniProt Q5XXA6, del476-501/F803A)
Sequence of UniProt Q5XXA6 (whole entry, unmodified, looked up): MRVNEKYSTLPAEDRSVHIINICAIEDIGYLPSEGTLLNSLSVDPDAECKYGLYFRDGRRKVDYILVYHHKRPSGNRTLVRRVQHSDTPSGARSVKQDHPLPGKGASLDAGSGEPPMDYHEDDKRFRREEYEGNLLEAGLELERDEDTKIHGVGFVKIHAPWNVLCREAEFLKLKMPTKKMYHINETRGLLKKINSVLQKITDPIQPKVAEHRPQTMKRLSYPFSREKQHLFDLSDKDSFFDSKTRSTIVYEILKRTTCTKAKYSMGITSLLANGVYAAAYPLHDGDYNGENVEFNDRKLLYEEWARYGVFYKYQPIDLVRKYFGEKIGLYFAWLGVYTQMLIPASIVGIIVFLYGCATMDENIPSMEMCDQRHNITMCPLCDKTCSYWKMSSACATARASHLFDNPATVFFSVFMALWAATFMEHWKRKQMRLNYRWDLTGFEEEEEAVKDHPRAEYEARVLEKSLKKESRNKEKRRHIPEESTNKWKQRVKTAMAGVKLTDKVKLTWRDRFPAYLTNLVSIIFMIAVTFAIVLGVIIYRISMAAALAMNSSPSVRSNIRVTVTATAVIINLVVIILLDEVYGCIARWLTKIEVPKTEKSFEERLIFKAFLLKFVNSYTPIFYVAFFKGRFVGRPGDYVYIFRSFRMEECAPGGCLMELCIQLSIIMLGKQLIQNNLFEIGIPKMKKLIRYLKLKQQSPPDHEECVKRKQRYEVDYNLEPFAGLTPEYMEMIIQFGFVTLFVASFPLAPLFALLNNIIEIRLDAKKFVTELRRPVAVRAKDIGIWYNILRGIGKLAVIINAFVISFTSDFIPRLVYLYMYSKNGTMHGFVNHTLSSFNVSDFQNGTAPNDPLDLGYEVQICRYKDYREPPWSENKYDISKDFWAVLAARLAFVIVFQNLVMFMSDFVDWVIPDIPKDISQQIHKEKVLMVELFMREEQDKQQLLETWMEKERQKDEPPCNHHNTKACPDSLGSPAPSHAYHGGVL
ANO1 del476-501/E649D: Anoctamin-1 (ANO1, Homo sapiens, UniProt Q5XXA6, del476-501/E649D)
ANO1 del476-501/R541I: Anoctamin-1 (ANO1, Homo sapiens, UniProt Q5XXA6, del476-501/R541I)
target	test	setting	IC50
ANO1 del476-501/F803A		membrane voltage 100 mV	20.7 µM
ANO1 del476-501/E649D	inhibitor	E623D mutant at 60 mV	40.9 µM
ANO1 del476-501/E649D	inhibitor	E623D mutant at -60 mV	57.9 µM
Anoctamin-1 (ANO1, Homo sapiens, UniProt Q5XXA6, del476-501/F807A)		membrane voltage -60 mV	22.5 µM
Anoctamin-1 (ANO1, Homo sapiens, UniProt Q5XXA6, del476-501/L548A)	inhibitor	pore pocket mutant L522A at 100 mV, together with: 300 nM Ca2+	36.6 µM
ANO1 del476-501/R541I	inhibitor	R515I mutant at -60 mV	41.9 µM
Anoctamin-1 (ANO1, Homo sapiens, UniProt Q5XXA6, del476-501)		membrane voltage 60 mV, together with: 300 nM Ca2+	21.6 µM
ANO1 del476-501/F803A		membrane voltage -20 mV	26.1 µM
ANO1 del476-501/R541I	inhibitor	R515I mutant at 80 mV	100 µM
Anoctamin-1 (ANO1, Homo sapiens, UniProt Q5XXA6, del476-501/M544T)	inhibitor	20 mV holding voltage	22.5 µM

Series 3
SMILES: NC(N)=NC(=O)c1nc(Cl)c(N2CCCCCC2)nc1N
Read-out: β-arrestin recruitment
Mode: agonist
Method: PRESTO-Tango
Concentration: 10 µM
Reference: untreated
target	fold over basal
Hydroxycarboxylic acid receptor 1 (HCAR1, Homo sapiens, UniProt Q9BXC0)	0.9 fold
Growth hormone secretagogue receptor type 1 (GHSR, Homo sapiens, UniProt Q92847)	1.17 fold
P2Y purinoceptor 2 (P2RY2, Homo sapiens, UniProt P41231)	0.51
2-oxoglutarate receptor 1 (OXGR1, Homo sapiens, UniProt Q96P68)	0.63
5-hydroxytryptamine receptor 2B (HTR2B, Homo sapiens, UniProt P41595)	0.99
5-hydroxytryptamine receptor 2C (HTR2C, Homo sapiens, UniProt P28335, I156V/I160V)	0.36
Growth hormone-releasing hormone receptor (GHRHR, Homo sapiens, UniProt Q02643)	0.69 fold
Motilin receptor (MLNR, Homo sapiens, UniProt O43193)	0.86
Relaxin-3 receptor 1 (RXFP3, Homo sapiens, UniProt Q9NSD7)	0.91
Mu-type opioid receptor (OPRM1, Homo sapiens, UniProt P35372)	3.95
Cannabinoid receptor 1 (CNR1, Homo sapiens, UniProt P21554)	0.83
Somatostatin receptor type 2 (SSTR2, Homo sapiens, UniProt P30874)	0.6
G-protein coupled receptor 87 (GPR87, Homo sapiens, UniProt Q9BY21)	0.98
Proto-oncogene Mas (Homo sapiens, UniProt P04201)	1.39
Free fatty acid receptor 2 (FFAR2, Homo sapiens, UniProt O15552)	0.65 fold
Neuromedin-U receptor 1 (NMUR1, Homo sapiens, UniProt Q9HB89)	0.77
Probable G-protein coupled receptor 34 (Homo sapiens, UniProt Q9UPC5)	0.85
Neuropeptide S receptor (NPSR1, Homo sapiens, UniProt Q6W5P4)	1.72

Mixed results
SMILES	target	test	setting	measurement	value
CC(C)S(=O)(=O)c1ccc2nccc(Nc3ccc4sc(C5CCCC5)nc4c3)c2c1	Serine/threonine-protein kinase DCLK1 (DCLK1, Homo sapiens, UniProt O15075)	kinase activity, inhibitor	1 µM	remaining activity	99.5%

Repeated from above (series 1):
target	remaining binding
Hepatocyte growth factor receptor (MET, Homo sapiens, UniProt P08581, M1250T)	96%
Protein kinase C iota type (PRKCI, Homo sapiens, UniProt P41743)	87%
Serine/threonine-protein kinase Nek5 (NEK5, Homo sapiens, UniProt Q6P3R8)	100%
TGF-beta receptor type-1 (TGFBR1, Homo sapiens, UniProt P36897)	80%
Cyclin-dependent kinase 3 (CDK3, Homo sapiens, UniProt Q00526)	100%
Cyclin-dependent kinase-like 5 (CDKL5, Homo sapiens, UniProt O76039)	87%
